Results gathered from unrelated publications.
Protocols differ between the studies behind these lines.
KAT6A both winged helices, GST fusion: Histone acetyltransferase KAT6A, both winged helices, GST fusion (KAT6A, Homo sapiens, UniProt Q92794, residues 1-181)
IRF7 S471D/S472D/S475D/S476D/S477D/S483D/S484D/S487D full length, phosphomimetic: Interferon regulatory factor 7, full length, phosphomimetic (IRF7, Homo sapiens, UniProt Q92985, residues 1-503, S471D/S472D/S475D/S476D/S477D/S483D/S484D/S487D)
Chain of UniProt Q92985 (whole entry, unmodified, looked up): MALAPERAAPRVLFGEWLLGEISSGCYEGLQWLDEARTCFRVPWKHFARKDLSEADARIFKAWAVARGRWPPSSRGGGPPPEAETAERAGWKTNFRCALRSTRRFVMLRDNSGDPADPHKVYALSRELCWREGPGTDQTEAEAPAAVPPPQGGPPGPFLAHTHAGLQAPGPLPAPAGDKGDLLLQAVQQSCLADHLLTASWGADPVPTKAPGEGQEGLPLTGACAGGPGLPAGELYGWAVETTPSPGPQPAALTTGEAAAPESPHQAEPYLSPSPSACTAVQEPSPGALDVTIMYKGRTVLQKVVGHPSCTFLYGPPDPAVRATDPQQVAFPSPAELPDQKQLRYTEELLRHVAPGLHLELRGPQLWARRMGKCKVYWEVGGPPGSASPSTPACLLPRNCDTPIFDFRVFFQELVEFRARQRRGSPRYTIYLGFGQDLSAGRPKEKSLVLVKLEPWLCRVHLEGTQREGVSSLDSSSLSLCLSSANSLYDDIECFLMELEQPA
F2 mature alpha-thrombin: Prothrombin, mature alpha-thrombin (F2, Homo sapiens, UniProt P00734)

CACCACAC  E-score (KAT6A both winged helices, GST fusion; protein binding microarray; double-stranded DNA, one strand shown, in vitro; not given, 8-mer, flanks averaged, mean of 2 arrays, mostly near background; relative to: not given, higher = stronger binding): -0.0343
GCCTAGCACTTAGGACTGGGACAGGGTTAGTGCTAGGTCTTGATTCGCTTGACGCTGCTG  fitted relative affinity (IRF7 S471D/S472D/S475D/S476D/S477D/S483D/S484D/S487D full length, phosphomimetic; protein-binding microarray; double-stranded DNA, one strand shown, in vitro; 2200 nM top, 60-bp whole probe, together with: salmon DNA 0.4 mg/ml; relative to: random background probes, higher = stronger binding): -0.862 z-score
GGTTGGTGTGGTTGG (2'F-ANA at 6 7 8 9 11 12 13 14)  mean fluorescence intensity (F2 mature alpha-thrombin; aptamer microarray, sandwich; DNA with 2'F-ANA, in vitro; 200 nM, whole 15-mer aptamer, many near background, together with: Cy3 exosite-II aptamer, 400 nM; higher = stronger binding): 191 a.u.
GCCTAGCACTTAGATTGCAGTTTCGATTAGTGCTAGGTCTTGATTCGCTTGACGCTGCTG  fitted relative affinity (IRF7 S471D/S472D/S475D/S476D/S477D/S483D/S484D/S487D full length, phosphomimetic; protein-binding microarray; double-stranded DNA, one strand shown, in vitro; 2200 nM top, 60-bp whole probe, together with: salmon DNA 0.4 mg/ml; relative to: random background probes, higher = stronger binding): 5.2 z-score
ACCGAUA  7-mer Z-score (PABPC1L2, full length, GST fusion (mouse, UniProt A0ABA7IW68); RNAcompete; RNA, in vitro; 20 nM, 7-mer, probes averaged, single round; relative to: mean of 7-mers, higher = stronger binding): 0.102
PhoQ, residues 284 288 289 292 302 303 NLCILV  fold induction (PhoP, residues 12 14 15 18 19 NNFVT (Escherichia coli, UniProt P23836); Sort-seq, refers to: YFP reporter; E. coli; PhoQ-PhoP variant library, together with: 10 µM Mg2+; relative to: high Mg2+ state, higher = stronger signaling): 20.2
TGTTGGAA  E-score (KAT6A both winged helices, GST fusion; protein binding microarray; double-stranded DNA, one strand shown, in vitro; not given, 8-mer, flanks averaged, mean of 2 arrays, mostly near background; relative to: not given, higher = stronger binding): -0.184
GGTTGGTGTGGTTGG (2'F-ANA at 3 4 7)  mean fluorescence intensity (F2 mature alpha-thrombin; aptamer microarray, sandwich; DNA with 2'F-ANA, in vitro; 200 nM, whole 15-mer aptamer, many near background, together with: Cy3 exosite-II aptamer, 400 nM; higher = stronger binding): 821 a.u.

Excerpt of the above:
GCCTAGCACTTAGGACTGGGACAGGGTTAGTGCTAGGTCTTGATTCGCTTGACGCTGCTG  fitted relative affinity (IRF7 S471D/S472D/S475D/S476D/S477D/S483D/S484D/S487D full length, phosphomimetic; protein-binding microarray; double-stranded DNA, one strand shown, in vitro; 2200 nM top, 60-bp whole probe, together with: salmon DNA 0.4 mg/ml; relative to: random background probes, higher = stronger binding): -0.862 z-score
